# Results from different studies.
# Each line is one published result; not all experiments were run side by side. Numbers after ± are the reported error.
Structure (SMILES),organism,assay,system,setting,how to read,measurement,value
COc1ccc(-n2c(=O)c(C(=O)C3C(=O)CCCC3=O)nc3c(C)cccc32)cc1,Schoenoplectus juncoides,"herbicidal activity, paddy pot test, visual rating",,28 days,,ED90,25 g a.i./10 a
C[C@@H](c1ccn(Cc2ccccc2)n1)[C@](O)(Cn1cnnn1)c1ccc(F)cc1F,Aspergillus fumigatus,"growth, broth microdilution",7544,"48 h, 35 °C, ≥50% inhibition",,MIC,> 64 mg/L
COc1cc(OC(C)=O)c2cc3c(cc2c1OC(C)=O)CCCC3(C)C,Leishmania infantum,,promastigotes,,relative to: HepG2 CC50 over promastigote EC50,selectivity index,3.3
CC(C)C[C@@H]1NC(=O)[C@H](CCCCN)NC(=O)[C@H](C(C)C)NC(=O)[C@@H]2CCCN2C(=O)[C@@H](Cc2ccc(O)cc2)NC(=O)[C@H](CC(C)C)NC(=O)[C@H](CCCCN)NC(=O)[C@H](C(C)C)NC(=O)[C@H](CCCCN)NC(=O)[C@H](CC(C)C)NC(=O)[C@H](CCCCN)NC(=O)[C@@H]2CCCN2C(=O)[C@@H](Cc2ccc(O)cc2)NC(=O)[C@H](C(C)C)NC(=O)[C@H](CCCCN)NC1=O,fungi,,,"24 h, 2 strains",,MIC geometric mean,5.7 mg/L
Cc1ccc(N(CCc2nnc(S)o2)S(=O)(=O)c2ccccc2)cc1,Aspergillus niger,cup plate method,,100 µg/mL,relative to: fluconazole,relative inhibition,20.7%
Fc1ccc2c(c1)c1nc3ccc(Br)cc3c-1cn2Cc1cn(-c2ccccc2I)nn1,Giardia duodenalis trophozoites,"UHPLC-Q-TOF-MS, item: lignoceric acid",,"IC50, 0.2787 h",relative to: 0.25% DMSO,fold change,-28.8
CC1(C)NCCC[C@]2(C)[C@H]3CC=C4[C@@H]5C[C@@](C)(CO)CC[C@]5(C)CC[C@@]4(C)[C@]3(C)CC[C@@H]12,Human papillomavirus 11,"viral replication, luciferase reporter",C-33 A,,,EC90,> 1.2 µM
COC1=CC(c2ccc[nH]2)=NC1=CNC12CC3CC(CC(C3)C1)C2,Plasmodium yoelii,,"Kenya strain MRA-428, mice","oral, day 5, dosed 4 days",,ED50,84 mg/kg/day
CCNC1=CC(=O)c2cc3c(cc2C1=O)CCCC3(C)C,Leishmania infantum,,"intracellular amastigotes, ex vivo mouse splenic explants",,relative to: HepG2 CC50 over amastigote EC50,selectivity index,4.4
C=C(C)[C@@H]1CC[C@]2(C(=O)n3ccnc3)CC[C@]3(C)[C@H](CC[C@@H]4[C@@]5(C)CCCNC(C)(C)[C@@H]5CC[C@]43C)[C@@H]12,Human papillomavirus 11,"viral replication, luciferase reporter",C-33 A,,,EC90,> 1.2 µM
CCCCCCN=Cc1[nH]c(-c2ccc[nH]2)cc1OC,Plasmodium yoelii,,"Kenya strain MRA-428, mice","oral, 100 mg/kg daily for 4 days, day 5",,parasitaemia suppression,100%
O=C1CC(c2ccc(O)cc2)Oc2cc(O)cc([O][Ga+][O]c3cc(O)cc4c3C(=O)CC(c3ccc(O)cc3)O4)c21 (stereo not shown),Pseudomonas aeruginosa,"significantly changed metabolites, GC-MS metabolomics",,"4 µM, 4 h",,number of metabolites,50
Cc1ncc([N+](=O)[O-])n1CCOCc1nnc(SCC(=O)c2ccc(O)cc2)o1,Serratia marcescens,,DMSO,"60 µg/mL, 24 h, 37 °C",,inhibition zone diameter,15 to 20 mm
NC(=O)CCCn1c2ccc([N+](=O)[O-])cc2c(=O)n1Cc1ccccc1,Leishmania amazonensis,"parasite growth, imaging",mouse Peritoneal macrophage,"48 h, intracellular, amastigote",,IC50,4.2 µM
CCCCn1c2ccccc2c2ccnc(-c3ccc(OC)cc3)c21,Echinococcus granulosus sensu stricto,,protoscoleces,"200 µM, 48 h",,killed protoscoleces,> 90%
CC(C)C[C@@H]1NC(=O)[C@H](CCCCN)NC(=O)[C@H](C(C)C)NC(=O)[C@@H]2CCCN2C(=O)[C@@H](Cc2ccc(O)cc2)NC(=O)[C@H](CC(C)C)NC(=O)[C@H](CCCCN)NC(=O)[C@H](C(C)C)NC(=O)[C@H](CCCCN)NC(=O)[C@H](CC(C)C)NC(=O)[C@@H]2CCCN2C(=O)[C@@H](Cc2ccc(O)cc2)NC(=O)[C@H](C(C)C)NC(=O)[C@H](CCCCN)NC1=O,fungi,,,"24 h, 2 strains",,MIC geometric mean,11.3 mg/L
C[C@@H](c1ccn(Cc2c(F)cc(Cl)cc2F)n1)[C@](O)(Cn1cnnn1)c1ccc(F)cc1F,Aspergillus fumigatus,"growth, broth microdilution",7544,"48 h, 35 °C, ≥50% inhibition",,MIC,> 64 mg/L
CN[C@H](CC(C)C)C(=O)N[C@H]1C(=O)N[C@@H](CC(N)=O)C(=O)N[C@H]2C(=O)N[C@H]3C(=O)N[C@H](C(=O)N[C@H](C(=O)O)c4cc(O)cc(O)c4-c4cc3ccc4O)[C@H](O)c3ccc(c(Cl)c3)Oc3cc2cc(c3O[C@@H]2O[C@H](CO)[C@@H](O)[C@H](O)[C@H]2O[C@H]2C[C@](C)(NCc3ccc(C(=O)OCCCCCCN(Cc4ccccn4)Cc4ccccn4)cc3)[C@H](O)[C@H](C)O2)Oc2ccc(cc2Cl)[C@H]1O,Bacillus subtilis,"protein synthesis, item: YtkL",168,"concentration not given, 10 min, at peak effective concentration",relative to: untreated,regulation factor,5.7 ± 1.3
c1ccc(-c2nc(-c3ccc4ccccc4c3)c[nH]2)cc1,Schistosoma mansoni,,female worms,100 µM,,worm killing,0%
Cc1ncc([N+](=O)[O-])n1CCOCc1nnc(SCC(=O)c2ccc(Br)cc2)o1,Serratia marcescens,,DMSO,"60 µg/mL, 24 h, 37 °C",,inhibition zone diameter,15 to 20 mm
CCc1c(C)[nH]c(C=NC23CC4CC(CC(C4)C2)C3)c1C,Plasmodium yoelii,,"Kenya strain MRA-428, mice","oral, 25 mg/kg daily for 4 days, day 5",,parasitaemia suppression,17%
COC1=CC(=O)c2cc3c(cc2C1=O)CCCC3(C)C,Leishmania infantum,,"intracellular amastigotes, ex vivo mouse splenic explants",,relative to: HepG2 CC50 over amastigote EC50,selectivity index,2.1
CC[C@@H](C)[C@@H](NC(=O)[C@@H](C)NC(=O)[C@@H](CCCCN)NC(=O)[C@@H](CC(C)C)NC(=O)[C@@H](CC(C)C)NC(=O)[C@H](NC(=O)[C@@H](CCCCN)NC(=O)[C@@H](CC(C)C)NC(=O)[C@@H](C)NC(=O)[C@@H](CCCCN)NC(=O)[C@@H](CCCCN)NC(=O)[C@@H](CCCCN)NC(=O)[C@@H](C)NC(=O)[C@@H](CCCCN)NC(=O)[C@@H](CO)NC(=O)[C@@H](Cc1ccccc1)NC(=O)[C@H](NC(=O)[C@@H](CCCCN)NC(=O)[C@@H](CC(C)C)NC(=O)[C@@H](Cc1ccccc1)NC(=O)[C@@H](CO)NC(=O)[C@@H](CCCCN)NC(=O)[C@@H](Cc1c[nH]c2ccccc12)NC(=O)[C@@H](CCCCN)NC(C)=O)[C@H](C)O)[C@H](C)O)C(=O)N[C@H](CO)C(=O)N[C@H](CCCCN)C(N)=O,Acinetobacter baumannii,,11 isolates,"24 h, 37 °C",,MIC geometric mean,0.8 µM
COC1C=COC2(C)Oc3c(C)c(O)c4c(c3C2=O)C2=NC3(CCN(CC(C)C)CC3)NC2=C(NC(=O)C(C)=CC=CC(C)C(O)C(C)C(O)C(C)C(OC(=O)Nc2cnccn2)C1C)C4=O (stereo not shown),Mycobacteroides abscessus,,ATCC 19977,"1-log kill, replicating cultures",,MBC,0.05 µM
O=S(=O)(c1ccccc1)N(CCc1nnc(S)o1)c1ccc(Cl)cc1,Aspergillus niger,cup plate method,,100 µg/mL,relative to: fluconazole,relative inhibition,48.5%
C[C@@H](c1ccn(Cc2ccc(C(C)(C)C)cc2)n1)[C@](O)(Cn1cnnn1)c1ccc(F)cc1F,Aspergillus fumigatus,"growth, broth microdilution",7544,"48 h, 35 °C, ≥50% inhibition",,MIC,> 64 mg/L
COC1=CC(c2ccc[nH]2)=NC1=Cc1[nH]c(Cc2ccc(Cl)cc2)cc1Cc1ccc(Cl)cc1,Plasmodium yoelii,,"Kenya strain MRA-428, mice","oral, 50 mg/kg daily for 4 days, day 5",,parasitaemia suppression,100%
CC(=O)[O-].O.O.O.O.[Mn+2].[O-]c1ccc(Br)cc1C=NCCN1CCOCC1,Aspergillus niger,,,20 µL of 100 µM per disc,,inhibition zone diameter,26 mm
CCCn1c2ccc([N+](=O)[O-])cc2c(=O)n1Cc1ccccc1,Leishmania amazonensis,"parasite growth, resazurin",,"72 h, promastigote",,IC50,0.8 µM
CC1=C(C)C(Oc2c(F)cc3c(C)cc(=O)oc3c2F)OC1=O (racemic),Pisum sativum,,rms1 mutant,"applied to axillary bud, concentration not given",,shoot branching inhibition,active
COC1=CC(c2ccc[nH]2)=NC1=CNC1CCCC1,Plasmodium yoelii,,"Kenya strain MRA-428, mice","oral, 100 mg/kg daily for 4 days, day 5",,parasitaemia suppression,100%
CC(=O)Oc1ccc(OC(C)=O)c2cc3c(cc12)CCCC3(C)C,Leishmania infantum,,"intracellular amastigotes, ex vivo mouse splenic explants",,relative to: HepG2 CC50 over amastigote EC50,selectivity index,2.3
C/C(=C\c1ccco1)[N+](=O)[O-],Leishmania amazonensis,motility arrest,promastigotes,"72 h, 26 °C",,minimal parasiticidal concentration,22.8 ± 0.9 µM
COc1ccc(-c2nc(-c3ccccc3OC)[nH]c2-c2ccc(OC)cc2)cc1,Schistosoma mansoni,,adult male worms,25 µM,,worm killing,0%
O=[N+]([O-])c1ccc(/C=N/N=C/c2ccc([N+](=O)[O-])s2)cc1,Trypanosoma equiperdum,"parasite growth, CellTiter-Glo",IVM-t1 bloodstream form,72 h,,IC50,1.01 ± 0.5 µM
C=C(C)[C@@H]1CC[C@]2(CO)CC[C@]3(C)[C@H](CC[C@@H]4[C@@]5(C)CCCNC(C)(C)[C@@H]5CC[C@]43C)[C@@H]12,Human papillomavirus 11,"viral replication, luciferase reporter",C-33 A,,,EC90,> 6 µM
CCOC1=CC(=O)c2cc3c(cc2C1=O)CCCC3(C)C,Leishmania infantum,,"intracellular amastigotes, ex vivo mouse splenic explants",,relative to: HepG2 CC50 over amastigote EC50,selectivity index,13

# For quick reference, copied from above:
Structure (SMILES),organism,assay,system,setting,how to read,measurement,value
Cc1ncc([N+](=O)[O-])n1CCOCc1nnc(SCC(=O)c2ccc(O)cc2)o1,Serratia marcescens,,DMSO,"60 µg/mL, 24 h, 37 °C",,inhibition zone diameter,15 to 20 mm
NC(=O)CCCn1c2ccc([N+](=O)[O-])cc2c(=O)n1Cc1ccccc1,Leishmania amazonensis,"parasite growth, imaging",mouse Peritoneal macrophage,"48 h, intracellular, amastigote",,IC50,4.2 µM
CCCCn1c2ccccc2c2ccnc(-c3ccc(OC)cc3)c21,Echinococcus granulosus sensu stricto,,protoscoleces,"200 µM, 48 h",,killed protoscoleces,> 90%
CC(C)C[C@@H]1NC(=O)[C@H](CCCCN)NC(=O)[C@H](C(C)C)NC(=O)[C@@H]2CCCN2C(=O)[C@@H](Cc2ccc(O)cc2)NC(=O)[C@H](CC(C)C)NC(=O)[C@H](CCCCN)NC(=O)[C@H](C(C)C)NC(=O)[C@H](CCCCN)NC(=O)[C@H](CC(C)C)NC(=O)[C@@H]2CCCN2C(=O)[C@@H](Cc2ccc(O)cc2)NC(=O)[C@H](C(C)C)NC(=O)[C@H](CCCCN)NC1=O,fungi,,,"24 h, 2 strains",,MIC geometric mean,11.3 mg/L
C[C@@H](c1ccn(Cc2c(F)cc(Cl)cc2F)n1)[C@](O)(Cn1cnnn1)c1ccc(F)cc1F,Aspergillus fumigatus,"growth, broth microdilution",7544,"48 h, 35 °C, ≥50% inhibition",,MIC,> 64 mg/L
CN[C@H](CC(C)C)C(=O)N[C@H]1C(=O)N[C@@H](CC(N)=O)C(=O)N[C@H]2C(=O)N[C@H]3C(=O)N[C@H](C(=O)N[C@H](C(=O)O)c4cc(O)cc(O)c4-c4cc3ccc4O)[C@H](O)c3ccc(c(Cl)c3)Oc3cc2cc(c3O[C@@H]2O[C@H](CO)[C@@H](O)[C@H](O)[C@H]2O[C@H]2C[C@](C)(NCc3ccc(C(=O)OCCCCCCN(Cc4ccccn4)Cc4ccccn4)cc3)[C@H](O)[C@H](C)O2)Oc2ccc(cc2Cl)[C@H]1O,Bacillus subtilis,"protein synthesis, item: YtkL",168,"concentration not given, 10 min, at peak effective concentration",relative to: untreated,regulation factor,5.7 ± 1.3
